# Results gathered from unrelated publications.
# Protocols differ between the studies behind these lines. Values joined by “and” are separate records of one study, mostly repeats; a detail may differ. ± gives the spread as reported.
SMILES,target or system,test,test system,conditions,scale,endpoint,value
C/C(N)=N/C(=N\S(=O)(=O)c1ccc(C(F)(F)F)cc1)N1C[C@H](c2ccccc2)C(c2ccc(Cl)cc2)=N1,,,"female cynomolgus monkey, plasma","oral, 18 mg/kg",,Tmax,4 h
CC[n+]1cccc2cc(/C=N/NC(=O)c3cccc(C(=O)N/N=C/c4ccc5c(ccc[n+]5CC)c4)c3)ccc21,MYC parallel G4 DNA,FRET melting,,"1 µM, DNA 0.2 µM, with: duplex DNA competitor 10 µM",,ΔTm,3.4 ± 0.2 °C
CC(=O)N([O-])CCCCCNC(=O)CCC(=O)N([O-])CCCCCNC(=O)CCC(=O)N([O-])CCCCCN.[89Zr+4],,radio-TLC,aqueous buffer,"3 d, pH 7.2, 37 °C, 89Zr-labelled complex, with: CuCl2 10-fold excess",,intact complex,96.7 ± 2.2%
O=C(Nc1cnccc1-c1ccc([18F])nc1)c1ccnc(NC(=O)C2CC2)c1,,ex vivo gamma counting,"FVB/NJ mice, both sexes, cortex","intravenous, 120 min, mean, P-gp inhibitor pretreatment, with: tariquidar 15 mg/kg iv",,SUV,0.072
CCOc1ccc(Nc2ncnc3[nH]c(/C=C/c4ccc(OC)c(OC)c4)nc23)cc1,,HPLC,"solution, dark",before light exposure,,purity,99.6%
CC[C@H](C)[C@H](NC(=O)[C@H](Cc1ccc(O)cc1)NC(=O)[C@@H](NC(=O)[C@H](CCCNC(=N)N)NC(=O)[C@@H](N)CC(=O)O)C(C)C)C(=O)N[C@@H](Cc1c[nH]cn1)C(=O)N1CCC[C@H]1C(=O)O,,LC-MS/MS,"Sprague-Dawley rat, both sexes, plasma","subcutaneous, 10 mg/kg/day, day 0, 0.25 h, 15 min",,plasma concentration,25.6 ng/mL
COC1CN([C@H]2CC[C@H]([C@@]3(C)Oc4c(Cl)cc(C(=O)NCc5c(SC)cc(C)[nH]c5=O)c(C)c4O3)CC2)C1,,"RNA-seq, measured: ZBTB46","human, whole blood","dose not given, 24 h",reference: pretreatment baseline,log2 fold change,1.77
COc1cc2c(cc1O)CCN1C[C@@H](CC(C)C)[C@@H](O)C[C@H]21,,measured: non-deuterated analyte,"healthy human male, plasma","oral, 25 mg, geometric mean, [14C]-tetrabenazine dosed",,MRT(0-t),20.3 h
Cc1nn(-c2nc3c(F)cc(F)cc3s2)c(O)c1C(c1ccc(C(F)(F)F)cc1)c1c(C)nn(-c2nc3c(F)cc(F)cc3s2)c1O,,,"ICR mouse, plasma","intravenous, 5 mg/kg",,Vss observed,0.758 L/kg and 0.563 L/kg and 1.03 L/kg
O=C1c2sc(-c3ccc(N4CCC(F)C4)nc3F)nc2CCN1c1cccnc1 (centres unmarked),,HPLC,"rhesus monkey, plasma","intravenous, 14.98 min",,parent fraction,0.553
CC[C@H](C)[C@@H]1NC(=O)[C@H](Cc2ccc(O)cc2)NC(=O)CCCSC[C@@H](C(=O)N(CC(=O)N[C@@H](CC(C)C)C(=O)NCC(N)=O)Cc2ccc(F)cc2)NC(=O)[C@H](CC(N)=O)NC(=O)[C@H](CCC(N)=O)NC1=O,,,human,"intranasal, 200 µg single",,drug-related dysgeusia,33%
Cl.NCc1ccc2c(c1)CN(C1CCC(=O)NC1=O)C2=O (centres unmarked),,,"male CD-1 mouse, whole blood",3 h,,remaining compound,> 95%
Cc1ccc(OCC(=O)N(Cc2cccs2)c2ccn[nH]2)cc1,,,human plasma,"750 ng/mL, 0.5 h, 37 °C, unit not given",reference: time zero,remaining compound,86.2
C=CC(=O)N1CCC[C@@H](c2ccc(C(N)=O)c3[nH]ccc23)C1,,,"mouse, TMD8 tumour-bearing, plasma","30 mg/kg twice daily, 12 h",,trough concentration,0.113 ng/mL
CN1CCC[C@]1(C)/C=C/S(=O)(=O)NC(=O)Nc1c2c(cc3c1CCC3)CCC2,,"measured: neutrophil count decreased, possibly related",human,"oral, 100 mg twice daily, 14 days, multiple ascending dose",,subjects with adverse event,0%
CCCCN1C(=O)c2cccc3c(NCCCCCCN4CCOCC4)ccc(c23)C1=O,,,ethyl acetate,,,Stokes shift,84 nm
C=CC(=O)Nc1cc(Nc2nccc(-c3c[nH]c4ccccc34)n2)c(OC)cc1N(C)CCN(C)C,,storage stability,human plasma,"2 h, on ice, LQC level",,recovery,103%
N#C[C@@H]1CC(F)(F)CN1C(=O)CNC(=O)c1ccnc2c(NC(=O)[C@H](CCCCNC(=O)CCOCCOCCOCCOCCOCCOCCNC(=O)CN3CCN(CC(=O)[O-])CCN(CC(=O)[O-])CCN(CC(=O)[O-])CC3)NC(=O)CCCc3ccc(I)cc3)cccc12.[177Lu+3],,,human serum,"24 h, 37 °C, 177Lu-labelled",,radiochemical stability,92.5 ± 2.4%
CCc1cnc(NC(=O)c2cc(S(=O)(=O)N3CCOCC3)ccc2N(C)C2CCCC2)s1,,,"mouse, serum","10 mg/kg, 3 doses",,Calcium,10.4 mg/dL
CNc1cc(C)c(C(N)=O)cn1,,,"Han Wistar rats, male, plasma","oral, 30 mg/kg, 2.00 h",,plasma concentration,87.4 µM
Cc1nc(N)nc2c1C(=O)N[C@@H](c1ccc(F)cc1-c1cccc(O[11CH3])n1)C2,,ex vivo biodistribution,"mice, MDA-MB-231 subcutaneous xenograft, plasma","60 min post-injection, baseline, vehicle pre-treatment",,SUV,0.3 ± 0.02
N#C[C@@H]1CC(F)(F)CN1C(=O)CNC(=O)c1ccnc2c(NC(=O)CCOCCOCCOCCOCCOCCOCCNC(=O)[C@H](CCCCNC(=O)CN3CCN(CC(=O)[O-])CCN(CC(=O)[O-])CCN(CC(=O)[O-])CC3)NC(=O)CCCc3ccc(I)cc3)cccc12.[177Lu+3],,,PBS,"24 h, 37 °C, 177Lu-labelled",,radiochemical stability,98.1 ± 3.2%
CCCCN1C(=O)c2cccc3c(NCCCN4CCOCC4)ccc(c23)C1=O,,,DMF,,,Stokes shift,91 nm
O=C1c2sc(-c3ccc(N4CCC(CO)CC4)nc3F)nc2CCN1c1cccnc1,,HPLC,"rhesus monkey, plasma","intravenous, 30.02 min",,parent fraction,0.29
C[n+]1ccc(/C=N/NC(=O)c2ccc3ccc4ccc(C(=O)N/N=C/c5cc[n+](C)cc5)nc4c3n2)cc1,hp2 hairpin duplex DNA,FRET melting,,1 µM,,ΔTm,1.6 ± 1 °C
COc1cccc(OC)c1-c1cc(C(=O)NC2(C(=O)O)C3CC4CC(C3)CC2C4)nn1-c1ccc(C(=O)N(C)CCCN(C)CCCN(C)C(=O)[C@H](CCCCNC(=O)[C@H](CC(C)C)NC(=O)C2OC2C(=O)O)NC(=O)CN2CCN(CC(=O)[O-])CCN(CC(=O)[O-])CCN(CC(=O)[O-])CC2)cc1C(C)C.[177Lu+3] (mixture of isomers),,,mouse HT-29 xenograft,"4 h, biodistribution",reference: tumour over stomach,tumour-to-stomach ratio,12.7
CCCCN1C(=O)c2cccc3c(NCCCCCN4CCOCC4)ccc(c23)C1=O,,,DMF,,,fluorescence lifetime,10.1 ns
CN(Cc1cc(C2CC2)on1)C(=O)c1cccc(-c2ccc(F)cc2)c1,,,"male ICR/CD-1 mouse, liver microsomes","2 µM, 5 min, pH 7.5, without ABT",,remaining compound,64.5%
COCC1CN(C2CCN(c3cc(OC)c(Nc4ncc(Br)c(Nc5ccc6c(c5P(C)(C)=O)OCCO6)n4)cc3C)CC2)C1,,,"EGFR-mutant NSCLC patients, plasma","oral, 90 mg single dose, geometric mean",,AUC(0-t),13400 ng·h/mL
O=C(Nc1cnccc1-c1ccc([18F])cc1)c1ccnc(NC(=O)C2CC2)c1,,"ex vivo biodistribution, gamma counting","GSK-3β overexpressing transgenic mouse, late stage, right kidney","intravenous, 120 min post-injection, with: tariquidar 15 mg/kg iv, at least 2 h before tracer",,mean SUV,1.3
CNS(=O)(=O)Nc1nccc(Cc2c(C)c3ccc(Oc4ncccc4F)cc3oc2=O)c1F,CHP-212,cell viability,,7 days,,IC50,1.02 nM
Cc1cc(C(=O)NC(C)(C)C(=O)O)cc(C)n1,,LC-MS metabolite profiling,"Sprague-Dawley rat, both sexes, plasma","oral, 100 mg/kg of parent drug, 0.25 (unit not given)",higher = more metabolite,plasma peak area,76100 a.u.
CCCCN1C(=O)c2cccc3c(NCCCCN4CCOCC4)ccc(c23)C1=O,,,DMF,,,Stokes shift,85 nm
O=S(=O)(N[C@H]1CCO[C@@H](C2c3ccc(F)cc3CCc3cc(F)ccc32)C1)c1ccc(OC(F)(F)F)cc1,,,mouse,"oral, 30 mg/kg, 2 h",,brain/plasma ratio,0.42 ± 0.27
C=C(NC(=O)c1csc(-c2nc3c(cc2O)-c2nc(cs2)C(=O)NC(C(C)O)C(=O)NC(=C(C)OC)c2nc(cs2)C(=O)NC2c4nc(cs4)C(=O)NC(COC(=O)c4c5c6c(cccc6n4O)COC(=O)C(OC4CC(C)(O)C(N(C)C)C(C)O4)C2OC5)c2nc-3cs2)n1)C(N)=O (centres unmarked),,,"cynomolgus monkey, plasma","intravenous, 3 mg/kg, single dose, infusion",,Tmax,0.51 h

# For quick reference, copied from above:
SMILES,target or system,test,test system,conditions,scale,endpoint,value
CC[C@H](C)[C@@H]1NC(=O)[C@H](Cc2ccc(O)cc2)NC(=O)CCCSC[C@@H](C(=O)N(CC(=O)N[C@@H](CC(C)C)C(=O)NCC(N)=O)Cc2ccc(F)cc2)NC(=O)[C@H](CC(N)=O)NC(=O)[C@H](CCC(N)=O)NC1=O,,,human,"intranasal, 200 µg single",,drug-related dysgeusia,33%
O=C1c2sc(-c3ccc(N4CCC(CO)CC4)nc3F)nc2CCN1c1cccnc1,,HPLC,"rhesus monkey, plasma","intravenous, 30.02 min",,parent fraction,0.29
C=CC(=O)N1CCC[C@@H](c2ccc(C(N)=O)c3[nH]ccc23)C1,,,"mouse, TMD8 tumour-bearing, plasma","30 mg/kg twice daily, 12 h",,trough concentration,0.113 ng/mL
